# Assay results collected from several papers.
# Every numbered part comes from another study and shows a few of its results, in no order.

# Series 1
# Target: Histone acetyltransferase KAT6A, both winged helices, GST fusion (KAT6A, Homo sapiens, UniProt Q92794, residues 1-181)
# Technique: protein binding microarray
# Form: double-stranded DNA, one strand shown
# Sample: in vitro
# Tested at: not given
# Setting: 8-mer, flanks averaged, mean of 2 arrays, mostly near background
# Relative to: not given
# Reading: higher = stronger binding
# Target sequence (chain): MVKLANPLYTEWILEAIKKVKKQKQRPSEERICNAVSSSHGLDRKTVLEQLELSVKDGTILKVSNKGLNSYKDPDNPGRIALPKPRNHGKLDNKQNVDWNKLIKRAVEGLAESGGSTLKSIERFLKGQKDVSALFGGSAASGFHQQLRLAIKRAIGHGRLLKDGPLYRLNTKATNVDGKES
Strand,E-score
AGTTCGAC,-0.061
ACGGCTCG,0.219
ACCCGCTC,0.273
AGGTCAGG,-0.238
ATGCACAT,-0.0595
ATACGGGG,0.174

# Series 2
# Target: Sal-like protein 4, full length isoform B (SALL4, Homo sapiens, UniProt Q9UJQ4-2, residues 1-616)
# Technique: universal PBM
# Form: double-stranded DNA, one strand shown
# Sample: in vitro
# Tested at: not given
# Setting: 8-mer, flanks averaged, mean of replicates
# Reading: higher = stronger binding
# Residues (chain): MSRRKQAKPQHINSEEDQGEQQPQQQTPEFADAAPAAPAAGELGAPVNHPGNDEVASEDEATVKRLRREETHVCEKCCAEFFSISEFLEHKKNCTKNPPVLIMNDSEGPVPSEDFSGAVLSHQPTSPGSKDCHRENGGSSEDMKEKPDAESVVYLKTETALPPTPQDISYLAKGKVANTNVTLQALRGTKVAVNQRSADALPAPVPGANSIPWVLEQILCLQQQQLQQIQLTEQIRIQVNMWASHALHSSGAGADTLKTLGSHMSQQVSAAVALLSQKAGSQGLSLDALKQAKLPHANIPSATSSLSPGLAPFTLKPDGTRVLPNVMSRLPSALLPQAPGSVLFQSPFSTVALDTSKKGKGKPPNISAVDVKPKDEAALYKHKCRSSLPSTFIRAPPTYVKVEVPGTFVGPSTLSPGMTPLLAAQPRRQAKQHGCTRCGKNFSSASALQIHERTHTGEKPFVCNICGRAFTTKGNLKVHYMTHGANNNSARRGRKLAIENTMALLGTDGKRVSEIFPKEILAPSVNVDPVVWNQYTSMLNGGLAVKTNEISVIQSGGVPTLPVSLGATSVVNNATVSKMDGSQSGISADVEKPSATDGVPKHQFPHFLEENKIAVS
Strand,E-score
CGGGATCA,-0.178
GTATACCA,0.0291
CTAGAAGA,0.0374
ATGGCGTA,0.0449
ACTGTGAC,0.0644

# Series 3
# Target: Interferon regulatory factor 5, full length, phosphomimetic (IRF5, Homo sapiens, UniProt Q13568-2, residues 1-514, S451D/S453D/S456D/S462D)
# Technique: protein-binding microarray
# Form: double-stranded DNA, one strand shown
# Sample: in vitro
# Tested at: 940 nM top
# Setting: 60-bp whole probe
# Together with: salmon DNA 0.4 mg/ml
# Relative to: random background probes
# Reading: higher = stronger binding
Strand,fitted relative affinity [z-score]
GCCTAGCACTCACCTCTAGGTTCTCTGACTGTGCTAGTCTTGATTCGCTTGACGCTGCTG,-0.0698
GCCTAGCACTTAGGTATCGGTCTCGGCTAGTGCTAGGTCTTGATTCGCTTGACGCTGCTG,9.44
GCCTAGCACGACGGACTGGACACTGGTGACGTGCTAGTCTTGATTCGCTTGACGCTGCTG,-0.577
GCCTAGCACGTCGGTTCCCTTTTCCTGACGTGCTAGGTCTTGATTCGCTTGACGCTGCTG,2.25

# Mixed results
Molecule,target,test,test system,conditions,scale,measurement,value
"PhoQ, residues 284 288 289 292 302 303 AAQSYM","PhoP, residues 12 14 15 18 19 IFFTR (Escherichia coli, UniProt P23836)","Sort-seq, measured: YFP reporter",E. coli,"PhoQ-PhoP variant library, together with: 10 µM Mg2+","relative to: high Mg2+ state, higher = stronger signaling",fold induction,4.01

# Repeated from above (series 1):
Strand,E-score
AGTTCGAC,-0.061
